Measured values collected from several papers.
Parts stem from different laboratories: compare values within a part only.

Series 1
Target: Prothrombin, mature alpha-thrombin (F2, Homo sapiens, UniProt P00734)
Technique: aptamer microarray, sandwich
Molecule type: DNA with 2'F-ANA
Sample: in vitro
Concentration: 200 nM
Setting: whole 15-mer aptamer, many near background
Added: Cy3 exosite-II aptamer, 400 nM
Reading: higher = stronger binding
Sequence: GGTTGGTGTGGTTGG
Modification	mean fluorescence intensity
2'F-ANA at 6 8 9 11 12 14 15	188 a.u.
2'F-ANA at 1 3 5 9 11 13 15	51.6 a.u.
2'F-ANA at 3 6 7 8 9 10 11 12 13 15	486 a.u.
2'F-ANA at 1 3 4 6 9 11 14 15	59.3 a.u.
2'F-ANA at 1 2 3 4 7 8 15	270 a.u.

Series 2
Target: Interferon regulatory factor 5, full length, phosphomimetic (IRF5, Homo sapiens, UniProt Q13568-2, residues 1-514, K96S/S451D/S453D/S456D/S462D)
Technique: protein-binding microarray
Molecule type: double-stranded DNA, one strand shown
Sample: in vitro
Concentration: 250 nM
Setting: 60-bp whole probe
Added: salmon DNA 0.4 mg/ml
Reference: random background probes
Reading: higher = stronger binding
All sequences stand within: GCCTAGCAC … GTCTTGATTCGCTTGACGCTGCTG
Sequence	log fluorescence [z-score]
CCTAGTTTTACTTTCTATGTGTGCTAG	4.94
TTAGGTTGCGGTTTCGGTTAGTGCTAG	8.81
TTCTAATTTACTTTGGTTGGGTGCTAG	0.748
TAAGAACTGGGGTATCGATTAGTGCTA	2.64
TCACCTTTTATATTGTAACTGTGCTAG	0.914

Further values, each from its own experiment
G3BP1 RRM domain: Ras GTPase-activating protein-binding protein 1, RRM domain (G3BP1, Homo sapiens, UniProt Q13283)
Chain of UniProt Q13283 (whole entry, looked up): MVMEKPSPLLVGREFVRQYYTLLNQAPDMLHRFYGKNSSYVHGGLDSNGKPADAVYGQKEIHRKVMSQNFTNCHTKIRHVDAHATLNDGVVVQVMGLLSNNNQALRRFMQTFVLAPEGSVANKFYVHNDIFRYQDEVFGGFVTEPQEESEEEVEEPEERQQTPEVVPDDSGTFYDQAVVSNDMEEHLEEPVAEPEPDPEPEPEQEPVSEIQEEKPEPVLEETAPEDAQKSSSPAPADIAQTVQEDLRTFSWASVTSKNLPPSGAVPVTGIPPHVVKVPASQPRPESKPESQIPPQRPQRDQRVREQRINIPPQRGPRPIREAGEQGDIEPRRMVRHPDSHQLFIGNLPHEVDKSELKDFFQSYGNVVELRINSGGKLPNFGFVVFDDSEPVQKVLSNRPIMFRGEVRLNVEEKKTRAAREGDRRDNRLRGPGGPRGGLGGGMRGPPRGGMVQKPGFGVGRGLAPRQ
Substance	target	test	system	conditions	scale	endpoint	value
GGGAGUUCUACAGUCCGACGAUCUAACUUUAGAGGAGGAUUUGAUGGAUAUGGCAGUGGACGUGGAUUUGGGGAUGGCUAUAAUGGGUAUGGAGGAGGACCUGGAGGUGGCAAUGGAAUUCUCGGGUGUCAAGG	G3BP1 RRM domain	RNA Bind-n-Seq	RNA, in vitro	1 µM, whole 134-nt RNA, ends assumed, added: 150 mM KCl	reference: input library, higher = stronger binding	log2 enrichment	-0.79
PhoQ, residues 284 288 289 292 302 303 TVTVVA	PhoP, residues 12 14 15 18 19 LHTVM (Escherichia coli, UniProt P23836)	Sort-seq, measured: YFP reporter	E. coli	PhoQ-PhoP variant library, added: 10 µM Mg2+	reference: high Mg2+ state, higher = stronger signaling	fold induction	16.5
GGGAGUUCUACAGUCCGACGAUCCCUGUGCUACACAUCGUAUGUACCGAAUCGGGGUUUUUUUGGGGAGGGGAAAAAAAGGGGAAAGUAUUAUGUUACGCCGUUCGGAUCUGCUGGAAUUCUCGGGUGUCAAGG	G3BP1 RRM domain	RNA Bind-n-Seq	RNA, in vitro	1 µM, whole 134-nt RNA, ends assumed, added: 150 mM KCl	reference: input library, higher = stronger binding	log2 enrichment	0.229
GGGAGUUCUACAGUCCGACGAUCCUCAAGUCCUGUGCUACACAUCGUAUGUACCGAAUCGGGGUUGGGUUGGUUGGGAAAGUAUUAUGUUACGCCGUUCGGAUCUGCACUUCCUGGAAUUCUCGGGUGUCAAGG	Fragile X messenger ribonucleoprotein 1, C-terminal low-complexity region (Fmr1, Mus musculus, UniProt P35922)	RNA Bind-n-Seq	RNA, in vitro	200 nM, whole 134-nt RNA, ends assumed, added: 150 mM KCl	reference: input library, higher = stronger binding	log2 enrichment	0.987

For quick reference, copied from above (series 2):
Sequence	log fluorescence [z-score]
TAAGAACTGGGGTATCGATTAGTGCTA	2.64
CCTAGTTTTACTTTCTATGTGTGCTAG	4.94
